Assay results collected from several papers.
Lines come from different studies, so protocols differ. Numbers after ± are the reported error.
Cell line: human red blood cells

SMILES | test | test system | conditions | how to read | endpoint | result
CC[C@H](C)[C@@H]1NC(=O)[C@H](C)NC(=O)[C@H](CCCNC(=N)N)NC(=O)[C@H](CCCNC(=N)N)NC(=O)[C@H](CC(N)=O)NC(=O)[C@H](CCCNC(=N)N)NC(=O)[C@H](C)NC(=O)[C@H](C(C)C)NC(=O)[C@H]([C@@H](C)CC)NC(=O)[C@H](C(C)C)NC(=O)[C@@H](NC(=O)[C@H](CCCCN)NC(=O)[C@@H](N)CCCNC(=N)N)CSSC[C@@H](C(=O)N[C@@H](CCCNC(=N)N)C(=O)O)NC(=O)[C@H](CC(C)C)NC(=O)[C@H]([C@@H](C)CC)NC1=O | – | – | 128 µg/mL, 3 h, 37 °C | baseline: Triton X-100 | hemolysis | -0.13%
CC[C@H](C)[C@H](NC(=O)[C@@H](N)C(C)C)C(=O)N[C@@H](Cc1c[nH]cn1)C(=O)N[C@@H](CCCCN)C(=O)N[C@@H](CC(C)C)C(=O)N[C@@H](C)C(=O)N[C@@H](CCCCN)C(=O)N[C@@H](CC(C)C)C(=O)N[C@@H](C)C(=O)N[C@@H](CCCCN)C(=O)N[C@@H](CCCCN)C(=O)N[C@@H](CC(C)C)C(=O)N[C@@H](C)C(=O)N[C@@H](CCCCN)C(=O)N[C@@H](CC(C)C)C(=O)N[C@@H](C)C(=O)N[C@@H](CCCCN)C(N)=O | – | – | MIC against Escherichia coli, 1 h, 37 °C, 0.8% v/v | baseline: Triton X-100 | haemolysis | 13%
CCCCCCCCCC(=O)NCCCC[C@H](NC(=O)[C@H](CCCCN)NC(=O)[C@@H]1CSCC(=O)N[C@@H](CCCCN)C(=O)N[C@@H](CC(C)C)C(=O)N[C@@H](CCCCN)C(=O)NCCCC[C@@H]2NC(=O)[C@H](CCCCN)NC(=O)[C@H](CC(C)C)NC(=O)[C@H](CCCCN)NC(=O)CSC[C@H](NC(=O)[C@H](CC(C)C)NC(=O)[C@H](CC(C)C)NC(=O)[C@H](CCCCN)NC2=O)C(=O)N[C@@H](CC(C)C)C(=O)N[C@@H](CC(C)C)C(=O)N[C@@H](CC(C)C)C(=O)N1)C(N)=O | – | – | 4 h, pH 7.4, room temperature | – | minimal haemolytic concentration | 125 µg/mL
CC[C@H](C)[C@H](NC(=O)[C@H](C)NC(=O)[C@H](CC(N)=O)NC(=O)[C@H](CCCNC(=N)N)NC(=O)[C@H](CCCNC(=N)N)NC(=O)[C@H](CC(N)=O)NC(=O)[C@H](CCCNC(=N)N)NC(=O)[C@H](CCCNC(=N)N)NC(=O)[C@H](C)NC(=O)[C@@H](NC(=O)[C@H](CO)NC(=O)[C@@H](NC(=O)[C@@H](NC(=O)[C@H](CS)NC(=O)[C@H](CCCCN)NC(=O)[C@@H](N)CCCNC(=N)N)C(C)C)[C@@H](C)CC)C(C)C)C(=O)N[C@@H](CCCCN)C(=O)N[C@H](C(=O)N[C@@H](CC(C)C)C(=O)N[C@@H](CS)C(=O)N[C@@H](CC(N)=O)C(=O)O)[C@@H](C)CC | – | – | 128 µg/mL, 3 h, 37 °C | baseline: Triton X-100 | hemolysis | 0.4%
CC[C@H](C)[C@H](NC(=O)[C@H](C)NC(=O)[C@H](CCCCN)NC(=O)[C@H](CC(C)C)NC(=O)[C@@H](N)Cc1ccccc1)C(=O)N[C@@H](CCCCN)C(=O)N[C@@H](CCCCN)C(=O)N[C@@H](Cc1ccccc1)C(=O)NCC(=O)N[C@@H](CCCCN)C(=O)N[C@@H](CCC(=O)O)C(=O)N[C@@H](Cc1ccccc1)C(=O)N[C@@H](CCCCN)C(=O)N[C@@H](CCCCN)C(=O)N[C@H](C(=O)NCC(=O)N[C@@H](C)C(=O)N[C@@H](CCCCN)C(=O)N[C@@H](CC(C)C)C(=O)N[C@@H](CCCCN)C(=O)O)[C@@H](C)CC | – | human blood | – | – | HC50 | > 128 mg/L
C[C@@H](O)[C@H](NC(=O)[C@H](CCCNC(=N)N)NC(=O)[C@H](CCCNC(=N)N)NC(=O)[C@H](CCCNC(=N)N)NC(=O)[C@@H]1CCCN1C(=O)[C@@H](N)CO)C(=O)N1CCC[C@H]1C(=O)N[C@@H](CO)C(=O)N1CCC[C@H]1C(=O)N[C@@H](CCCNC(=N)N)C(=O)N[C@@H](CCCNC(=N)N)C(=O)N[C@@H](CCCNC(=N)N)C(=O)N[C@@H](CCCNC(=N)N)C(=O)N[C@@H](CO)C(=O)N[C@@H](CCC(N)=O)C(=O)N[C@@H](CO)C(=O)N1CCC[C@H]1C(=O)N[C@@H](CCCNC(=N)N)C(=O)N[C@@H](CCCNC(=N)N)C(=O)N[C@@H](CCCNC(=N)N)C(N)=O | – | – | 100 µM, 24 h, pH 7.4, 37 °C, 0.25% v/v erythrocytes | – | maximum haemolysis | 7.9 ± 0.8%
CC[C@H](C)[C@H](NC(=O)CNC(=O)[C@H](CC(C)C)NC(=O)CNC(=O)[C@H](CCCCN)NC(=O)[C@H](CCC(=O)O)NC(=O)[C@H](CCCCN)NC(=O)[C@@H](NC(=O)[C@H](Cc1ccccc1)NC(=O)[C@H](CC(=O)O)NC(=O)[C@H](CCCCN)NC(=O)[C@H](C)NC(=O)[C@H](CCCCN)NC(=O)[C@H](CC(N)=O)NC(=O)[C@H](CC(C)C)NC(=O)[C@H](Cc1c[nH]c2ccccc12)NC(=O)[C@H](CC(=O)O)NC(=O)[C@H](CCCCN)NC(=O)[C@@H](NC(=O)CNC(=O)[C@H](C)N)[C@@H](C)O)[C@@H](C)CC)C(=O)N[C@@H](CC(C)C)C(=O)N[C@@H](CO)C(=O)N[C@@H](C)C(=O)N[C@@H](C)C(=O)N[C@@H](C)C(=O)N[C@@H](CC(N)=O)C(=O)N[C@@H](C)C(=O)N[C@@H](C)C(=O)N[C@H](C(=O)N[C@@H](CC(N)=O)C(=O)O)[C@@H](C)CC | – | – | 1 h | – | HC50 | > 200 µM
CC(C)C[C@@H]1NC(=O)[C@H](CC(C)C)NC(=O)[C@H](CCCCN)NC(=O)CSC[C@@H]2NC(=O)[C@H](CC(C)C)NC(=O)[C@H](CC(C)C)NC(=O)[C@H](CCCCN)NC(=O)[C@H](CCCCNC1=O)NC(=O)[C@H](CC(C)C)NC(=O)[C@H](CC(C)C)NC(=O)[C@H](CCCCN)NC(=O)CSC[C@@H](C(=O)N[C@@H](CCCCN)C(N)=O)NC(=O)[C@H](CCCCN)NC(=O)[C@H](CC(C)C)NC(=O)[C@H](CCCCN)NC2=O | – | – | 4 h, pH 7.4, room temperature | – | minimal haemolytic concentration | 125 µg/mL
CC[C@H](C)[C@H](NC(=O)[C@H](CCCCN)NC(=O)[C@H](CS)NC(=O)[C@H](C)NC(=O)[C@H](CC(N)=O)NC(=O)[C@H](CCCNC(=N)N)NC(=O)[C@H](CCCNC(=N)N)NC(=O)[C@H](CC(N)=O)NC(=O)[C@H](CCCNC(=N)N)NC(=O)[C@H](CCCNC(=N)N)NC(=O)[C@H](C)NC(=O)[C@H](CS)NC(=O)[C@H](CO)NC(=O)[C@@H](NC(=O)[C@@H](NC(=O)[C@H](CS)NC(=O)[C@H](CCCCN)NC(=O)[C@@H](N)CCCNC(=N)N)C(C)C)[C@@H](C)CC)C(=O)N[C@@H](CC(C)C)C(=O)N[C@@H](CS)C(=O)N[C@@H](CC(N)=O)C(=O)O | – | – | 128 µg/mL, 3 h, 37 °C | baseline: Triton X-100 | hemolysis | -0.21%
CCCCCCCCCC(=O)NCCCC[C@H](NC(=O)[C@H](CCCCN)NC(=O)[C@@H]1CSCC(=O)N[C@@H](CCCCN)C(=O)N[C@@H](CC(C)C)C(=O)N[C@@H](CCCCN)C(=O)N[C@H]2CCCCNC(=O)[C@H](CCCCN)NC(=O)[C@H](CC(C)C)NC(=O)[C@H](CCCCN)NC(=O)CSC[C@H](NC(=O)[C@H](CC(C)C)NC(=O)[C@H](CC(C)C)NC(=O)[C@H](CCCCN)NC2=O)C(=O)N[C@@H](CC(C)C)C(=O)N[C@@H](CC(C)C)C(=O)N[C@@H](CC(C)C)C(=O)N1)C(N)=O | – | – | 4 h, pH 7.4, room temperature | – | minimal haemolytic concentration | 125 µg/mL
CC(C)C[C@H](N)C(=O)N[C@@H](Cc1c[nH]c2ccccc12)C(=O)NCC(=O)N[C@@H](CCCNC(=N)N)C(=O)N[C@@H](Cc1ccccc1)C(=O)N[C@@H](Cc1ccccc1)C(=O)N[C@@H](CCCNC(=N)N)C(=O)N[C@@H](CCCCN)C(=O)N[C@@H](Cc1ccc(-c2ccccc2)cc1)C(=O)N[C@@H](CCCCN)C(N)=O | haemolysis | – | 1 h, 37 °C | – | HC50 | > 200 µM
CC[C@H](C)[C@H](NC(=O)[C@H](CCCCNC(=N)N)NC(=O)[C@H](CC(N)=O)NC(=O)[C@H](CC(C)C)NC(=O)[C@H](Cc1ccccc1)NC(=O)[C@H](CCCCNC(=N)N)NC(=O)[C@H](CCCCNC(=N)N)NC(=O)[C@H](CC(C)C)NC(=O)[C@H](CC(C)C)NC(=O)[C@H](CCCCNC(=N)N)NC(=O)[C@H](CCCCNC(=N)N)NC(=O)[C@H](CC(C)C)NC(=O)CNC(C)=O)C(=O)N[C@@H](CCCCNC(=N)N)C(=O)N[C@@H](CCCCNC(=N)N)C(N)=O | – | 5 % erythrocyte suspension | 1 h, 37 °C | – | HC50 | > 1000 µM
CC[C@H](C)[C@H](NC(=O)[C@@H](CCCCN)NC(=O)[C@H](CCCCN)NC(=O)[C@H](Cc1ccccc1)NC(=O)[C@H](CC(C)C)NC(=O)[C@@H](CCCCN)NC(=O)[C@H](Cc1c[nH]c2ccccc12)NC(=O)[C@H](CCCCN)NC(C)=O)C(=O)NCC(=O)N[C@@H](C)C(=O)N[C@H](C(=O)N[C@@H](CC(C)C)C(=O)N[C@H](CCCCN)C(=O)N[C@H](C(=O)N[C@@H](CC(C)C)C(N)=O)C(C)C)C(C)C | – | – | 64 µM, 1 h, 37 °C | baseline: Triton X-100 | hemolysis | < 1%
CC[C@H](C)[C@H](NC(=O)[C@H](Cc1ccccc1)NC(=O)[C@H](CC(=O)O)NC(=O)[C@H](CCCCN)NC(=O)[C@H](C)NC(=O)[C@H](CCCCN)NC(=O)[C@H](CC(N)=O)NC(=O)[C@H](CC(C)C)NC(=O)[C@H](Cc1c[nH]c2ccccc12)NC(=O)[C@H](CCC(=O)O)NC(=O)[C@H](CCCCN)NC(=O)[C@@H](NC(=O)CN)[C@@H](C)O)C(=O)N[C@@H](CCCCN)C(=O)N[C@@H](CCC(=O)O)C(=O)N[C@@H](CCCCN)C(=O)NCC(=O)N[C@@H](CC(C)C)C(=O)NCC(=O)N[C@@H](CCSC)C(=O)N[C@@H](CC(C)C)C(=O)N[C@@H](CO)C(=O)N[C@@H](C)C(=O)N[C@@H](C)C(=O)N[C@@H](C)C(=O)N[C@@H](CC(N)=O)C(=O)N[C@@H](C)C(=O)N[C@@H](C)C(=O)N[C@@H](CC(C)C)C(=O)N[C@@H](CC(N)=O)C(=O)O | – | – | 1 h | – | HC50 | > 150 µM
CC[C@H](C)[C@H](NC(=O)[C@H](CCCN)NC(=O)[C@H](CC(N)=O)NC(=O)[C@H](CC(C)C)NC(=O)[C@H](Cc1ccccc1)NC(=O)[C@H](CCCN)NC(=O)[C@H](CCCCNC(=N)N)NC(=O)[C@H](CC(C)C)NC(=O)[C@H](CC(C)C)NC(=O)[C@H](CCCN)NC(=O)[C@H](CCCCNC(=N)N)NC(=O)[C@H](CC(C)C)NC(=O)CNC(C)=O)C(=O)N[C@@H](CCCN)C(=O)N[C@@H](CCCCNC(=N)N)C(N)=O | – | 5 % erythrocyte suspension | 1 h, 37 °C | – | HC50 | > 1000 µM

Excerpt of the above:
SMILES | test | test system | conditions | how to read | endpoint | result
CCCCCCCCCC(=O)NCCCC[C@H](NC(=O)[C@H](CCCCN)NC(=O)[C@@H]1CSCC(=O)N[C@@H](CCCCN)C(=O)N[C@@H](CC(C)C)C(=O)N[C@@H](CCCCN)C(=O)NCCCC[C@@H]2NC(=O)[C@H](CCCCN)NC(=O)[C@H](CC(C)C)NC(=O)[C@H](CCCCN)NC(=O)CSC[C@H](NC(=O)[C@H](CC(C)C)NC(=O)[C@H](CC(C)C)NC(=O)[C@H](CCCCN)NC2=O)C(=O)N[C@@H](CC(C)C)C(=O)N[C@@H](CC(C)C)C(=O)N[C@@H](CC(C)C)C(=O)N1)C(N)=O | – | – | 4 h, pH 7.4, room temperature | – | minimal haemolytic concentration | 125 µg/mL
